{"data": "Measurements gathered from unrelated publications", "note": "A part holds a random share of what one study measured."}
{"data": "Set 1", "target": "Sal-like protein 4, full length isoform B (SALL4, Homo sapiens, UniProt Q9UJQ4-2, residues 1-616)", "method": "universal PBM", "molecule type": "double-stranded DNA, one strand shown", "sample": "in vitro", "concentration": "not given", "notes": "8-mer, flanks averaged, mean of replicates", "reading": "higher = stronger binding", "Target sequence (chain)": "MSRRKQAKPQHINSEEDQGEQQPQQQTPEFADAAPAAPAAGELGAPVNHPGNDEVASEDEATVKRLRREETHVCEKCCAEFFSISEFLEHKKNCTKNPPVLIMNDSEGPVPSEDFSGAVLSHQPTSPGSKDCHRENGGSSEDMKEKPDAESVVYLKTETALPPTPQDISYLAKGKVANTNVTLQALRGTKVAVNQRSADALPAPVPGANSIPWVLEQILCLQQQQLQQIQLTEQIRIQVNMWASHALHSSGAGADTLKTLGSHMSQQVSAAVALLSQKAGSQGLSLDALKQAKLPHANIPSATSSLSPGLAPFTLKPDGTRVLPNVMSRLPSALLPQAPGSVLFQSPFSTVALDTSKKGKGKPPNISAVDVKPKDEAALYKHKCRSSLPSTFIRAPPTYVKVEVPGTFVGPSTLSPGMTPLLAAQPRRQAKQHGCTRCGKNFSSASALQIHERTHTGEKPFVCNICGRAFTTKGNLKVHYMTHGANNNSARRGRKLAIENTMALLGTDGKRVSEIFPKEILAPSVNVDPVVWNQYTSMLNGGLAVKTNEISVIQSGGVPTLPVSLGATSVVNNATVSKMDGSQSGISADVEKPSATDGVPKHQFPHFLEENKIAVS"}
{"Strand": "CACTGCTA", "E-score": 0.012}
{"Strand": "GGCCATCA", "E-score": -0.176}
{"Strand": "CAACCATA", "E-score": 0.259}
{"Strand": "CCGTCCGA", "E-score": -0.273}
{"Strand": "CTAACTGA", "E-score": -0.0115}
{"Strand": "ACGTAGAC", "E-score": -0.0765}
{"Strand": "CCCGAGGA", "E-score": -0.219}
{"Strand": "GGTTCAAC", "E-score": -0.283}
{"Strand": "CATGTAGA", "E-score": 0.191}
{"Strand": "CGGCAGAC", "E-score": -0.333}
{"Strand": "CCTGGTCA", "E-score": -0.301}
{"Strand": "CATACCGG", "E-score": -0.104}
{"Strand": "TCCGGCGA", "E-score": -0.208}
{"Strand": "GCCTGAGC", "E-score": -0.309}
{"Strand": "GGAGTACC", "E-score": -0.218}
{"Strand": "AACCCCTT", "E-score": -0.0738}
{"Strand": "AATGGAAG", "E-score": 0.052}
{"Strand": "CCTTTCGA", "E-score": -0.0508}
{"Strand": "ACAAGGGT", "E-score": 0.104}
{"data": "Set 2", "target": "Histone acetyltransferase KAT6A, both winged helices, GST fusion (KAT6A, Homo sapiens, UniProt Q92794, residues 1-181)", "method": "protein binding microarray", "molecule type": "double-stranded DNA, one strand shown", "sample": "in vitro", "concentration": "not given", "notes": "8-mer, flanks averaged, mean of 2 arrays, mostly near background", "relative to": "not given", "reading": "higher = stronger binding", "Target sequence (chain)": "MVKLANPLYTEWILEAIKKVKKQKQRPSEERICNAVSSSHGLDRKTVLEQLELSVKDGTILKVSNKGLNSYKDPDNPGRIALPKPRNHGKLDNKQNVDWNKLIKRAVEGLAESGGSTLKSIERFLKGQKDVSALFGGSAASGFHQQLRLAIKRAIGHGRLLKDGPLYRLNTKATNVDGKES"}
{"Strand": "TAGATTCA", "E-score": -0.14}
{"Strand": "AAGCTTCC", "E-score": 0.0198}
{"Strand": "AATCAGGC", "E-score": -0.116}
{"Strand": "CGTCGCAC", "E-score": 0.26}
{"Strand": "CATGAAGG", "E-score": -0.0429}
{"Strand": "ACCTTGGC", "E-score": -0.154}
{"Strand": "AGTGAATC", "E-score": -0.225}
{"Strand": "AAACCCCA", "E-score": -0.254}
{"Strand": "AAGTTCCG", "E-score": 0.127}
{"Strand": "ACGTCTAG", "E-score": 0.0587}
{"Strand": "CTCATTGC", "E-score": -0.146}
{"Strand": "CCGCGCGC", "E-score": 0.411}
{"Strand": "TAGAACTA", "E-score": -0.17}
{"Strand": "GGAAACCA", "E-score": -0.103}
{"Strand": "AAAGTGAC", "E-score": -0.0673}
{"Strand": "TACTATGA", "E-score": -0.0541}
{"Strand": "AGCTACGG", "E-score": 0.0713}
{"Strand": "ATTATCAA", "E-score": -0.0758}
{"Strand": "GGAGGGAC", "E-score": -0.0783}
{"Strand": "AACGCGAT", "E-score": 0.151}
{"Strand": "GCAAGAAA", "E-score": -0.00184}
{"Strand": "AAAATGGC", "E-score": 0.025}
{"Strand": "CTTGTGTC", "E-score": -0.112}
{"Strand": "GGTCGTAA", "E-score": 0.156}
{"Strand": "GACTTCTA", "E-score": -0.00842}
{"data": "Set 3", "target": "Prothrombin, mature alpha-thrombin (F2, Homo sapiens, UniProt P00734)", "method": "aptamer microarray, sandwich", "molecule type": "DNA with 2'F-ANA", "sample": "in vitro", "concentration": "200 nM", "notes": "whole 15-mer aptamer, many near background", "with": "Cy3 exosite-II aptamer, 400 nM", "reading": "higher = stronger binding", "strand": "GGTTGGTGTGGTTGG"}
{"Modification": "2'F-ANA at 1 2 4 5 10 11 12 13 14", "mean fluorescence intensity [a.u.]": 80.4}
{"Modification": "2'F-ANA at 1 8 9 10 11 14 15", "mean fluorescence intensity [a.u.]": 53.7}
{"Modification": "2'F-ANA at 5 8 9 10 11 13", "mean fluorescence intensity [a.u.]": 50.3}
{"Modification": "2'F-ANA at 1 3 4 7 8 11", "mean fluorescence intensity [a.u.]": 263}
{"Modification": "2'F-ANA at 3 4 5 6 8 11 13", "mean fluorescence intensity [a.u.]": 69.2}
{"Modification": "2'F-ANA at 3 9 12 13", "mean fluorescence intensity [a.u.]": 1190}
{"Modification": "2'F-ANA at 2 3 4 6 13", "mean fluorescence intensity [a.u.]": 446}
{"Modification": "2'F-ANA at 1 2 5 8 9 11 12 14 15", "mean fluorescence intensity [a.u.]": 55.3}
{"Modification": "2'F-ANA at 1 2 4 6 10 11 12 14", "mean fluorescence intensity [a.u.]": 63.8}
{"Modification": "2'F-ANA at 5 6 7 9 11 14", "mean fluorescence intensity [a.u.]": 86}
{"Modification": "2'F-ANA at 1 3 4 5 6 7 8 10 12 15", "mean fluorescence intensity [a.u.]": 85.6}
{"Modification": "2'F-ANA at 1 3 5 6 8 10 11 13 14", "mean fluorescence intensity [a.u.]": 79.6}
{"Modification": "2'F-ANA at 2 6 7 8 13 14 15", "mean fluorescence intensity [a.u.]": 151}
{"Modification": "2'F-ANA at 4 5 9 12 13 14 15", "mean fluorescence intensity [a.u.]": 47.9}
{"Modification": "2'F-ANA at 1 2 3 4 5 6 7 8 10 13", "mean fluorescence intensity [a.u.]": 49.4}
{"Modification": "2'F-ANA at 4 5 10 11 13 15", "mean fluorescence intensity [a.u.]": 48.7}
{"Modification": "2'F-ANA at 1 3 5 6 8 10 12 13", "mean fluorescence intensity [a.u.]": 48.1}
{"data": "Set 4", "target": "Ras GTPase-activating protein-binding protein 1, full length (G3BP1, Homo sapiens, UniProt Q13283)", "method": "RNA Bind-n-Seq", "molecule type": "RNA", "sample": "in vitro", "concentration": "200 nM", "notes": "whole 134-nt RNA, ends assumed", "with": "150 mM LiCl", "relative to": "input library", "reading": "higher = stronger binding", "library": "7-deaza-guanosine replaces G", "all sequences stand within": "GGGAGUUCUACAGUCCGACGAUC … UGGAAUUCUCGGGUGUCAAGG", "chain of UniProt Q13283 (whole entry, looked up)": "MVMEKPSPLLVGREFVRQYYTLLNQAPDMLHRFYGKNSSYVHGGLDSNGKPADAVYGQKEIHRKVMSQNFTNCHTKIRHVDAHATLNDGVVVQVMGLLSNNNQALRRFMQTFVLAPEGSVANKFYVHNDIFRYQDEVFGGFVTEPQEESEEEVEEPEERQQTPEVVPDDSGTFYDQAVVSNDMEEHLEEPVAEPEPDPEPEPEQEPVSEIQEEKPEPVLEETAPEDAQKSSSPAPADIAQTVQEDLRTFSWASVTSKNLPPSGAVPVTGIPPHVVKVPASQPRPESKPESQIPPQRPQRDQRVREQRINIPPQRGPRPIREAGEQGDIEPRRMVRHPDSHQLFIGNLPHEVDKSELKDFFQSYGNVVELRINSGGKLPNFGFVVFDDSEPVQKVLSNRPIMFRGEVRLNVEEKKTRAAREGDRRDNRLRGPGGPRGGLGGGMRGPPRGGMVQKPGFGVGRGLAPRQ"}
{"Strand": "UUGGACUAUGGAUCAGGUACUGUGCUCAGCAUCAGAAAAUGGGAUGACAAUGAACAGAGUAACAGGACUAUAUUUCUGAAAAAGGAUGAA", "log2 enrichment": -0.893}
{"Strand": "UCCUCAAGUCCUGUGCUACACAUCGUAUGUACCGAAUCGGAGGAGGAAAGGAAAGUAUUAUGUUACGCCGUUCGGAUCUGCACUUCCAGC", "log2 enrichment": -1.17}
{"Strand": "AAGUCCUGUGCUACACAUCGUAUGUACCGAAUCGGGCCCGGGGCCCGGGCCCGGGGAAAGUAUUAUGUUACGCCGUUCGGAUCUGCACUU", "log2 enrichment": -2.15}
{"Strand": "GCAGGAAGUAAAAACAAAUGGAAAUGCUUCGGAUAGUGGCAGGGGUGGGGGUAAAUAAGGAAAGGGUGGGAUGGGAGUGGGUAAAGAGUU", "log2 enrichment": 0.167}
{"Strand": "GUCCUGUGCUACACAUCGUAUGUACCGAAUCGGGAAAGGGUUUUUUUGGGAAAAAGGGAAAGUAUUAUGUUACGCCGUUCGGAUCUGCAC", "log2 enrichment": -0.549}
{"Strand": "UGGGAGGCGGAUUUUGUUUAUUUUUUUAGCUCAUUUCCAGGGGUGGGAAUUUUUUUUUAAUAUGUGUCAUGAAUAAAGUUGUUUUUGAAA", "log2 enrichment": 0.556}
{"Strand": "UAACUUUAGAGGAGGAUCUGAUGGAUAUGGCAGUGGACGUGGAUUUGGGGAUGGCUAUAAUGGGUAUGGAGGACGACCUGGAGGUGGCAA", "log2 enrichment": -0.409}
{"Strand": "UAGGGUUCAGGAUAAGUUUGAGGUGCUGAAUUACACAAGCAUUCCUAUCUUUCUCCCGGAAGUCACCAUUGGAGCUCAUCAGACUGACCG", "log2 enrichment": -0.349}
